Measurements from different studies.
Every numbered part comes from another study and shows a few of its results, in no order. Values joined by “and” are separate records of one study, mostly repeats; a detail may differ.
UniProt P35372, sequence (whole entry, looked up): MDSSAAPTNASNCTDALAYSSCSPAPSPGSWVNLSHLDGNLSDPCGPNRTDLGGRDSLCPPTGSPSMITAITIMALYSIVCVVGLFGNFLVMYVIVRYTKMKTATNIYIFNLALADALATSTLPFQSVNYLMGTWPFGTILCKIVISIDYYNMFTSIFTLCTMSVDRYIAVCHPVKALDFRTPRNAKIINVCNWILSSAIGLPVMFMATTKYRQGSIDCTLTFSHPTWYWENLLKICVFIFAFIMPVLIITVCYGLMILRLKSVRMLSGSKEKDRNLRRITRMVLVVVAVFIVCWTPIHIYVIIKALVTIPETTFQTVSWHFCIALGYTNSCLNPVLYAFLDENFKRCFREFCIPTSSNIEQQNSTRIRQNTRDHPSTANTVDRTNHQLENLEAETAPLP
UniProt Q14790, sequence (whole entry, looked up): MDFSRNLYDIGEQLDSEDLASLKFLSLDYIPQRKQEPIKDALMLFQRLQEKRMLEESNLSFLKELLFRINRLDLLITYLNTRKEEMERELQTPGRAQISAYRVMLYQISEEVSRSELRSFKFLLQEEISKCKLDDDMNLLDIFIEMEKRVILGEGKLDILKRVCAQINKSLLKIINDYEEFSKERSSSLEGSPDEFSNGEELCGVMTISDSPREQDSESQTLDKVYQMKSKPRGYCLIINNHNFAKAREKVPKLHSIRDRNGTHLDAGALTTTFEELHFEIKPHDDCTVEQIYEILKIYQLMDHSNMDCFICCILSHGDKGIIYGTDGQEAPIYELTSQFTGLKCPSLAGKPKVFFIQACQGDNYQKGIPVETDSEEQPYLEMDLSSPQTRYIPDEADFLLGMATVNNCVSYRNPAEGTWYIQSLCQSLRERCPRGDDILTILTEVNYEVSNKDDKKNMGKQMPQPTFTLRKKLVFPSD

Study 1 — organism: Arabidopsis thaliana; strain: Col-0; setting: seed germination
SMILES: C=CCN1C(=O)C(O)(C(=O)O)Oc2cc(F)ccc21 (centres unmarked)
tested at	root length [cm]
6.25 µg/mL	1.08
25 µg/mL	1.04
3.125 µg/mL	1.12

Further values, each from its own experiment
SMILES	target or system	assay	test system	setting	endpoint	result
N=C(N)NCCCCCCN1CCC23c4c5ccc(O)c4OC2c2nc4ccccc4cc2CC3(O)C1C5 (centres unmarked)	Mu-type opioid receptor (OPRM1, Homo sapiens, UniProt P35372)	competitor, radioligand binding	–	10 µM	normalised specific binding	-0.974% and 1.33% and 1.43%
CC[C@H](C)[C@H](NC(C)=O)C(=O)N[C@@H](CCC(=O)O)C(=O)N[C@H](C(=O)N[C@H](C=O)CC(=O)O)[C@@H](C)O	Caspase-8 (CASP8, Homo sapiens, UniProt Q14790)	enzyme activity, inhibitor	–	1 nM	inhibition	0%
CCCCC[C@@H](O)CC(=O)N[C@@H]1C(=O)N[C@H](CCCNC(=N)N)C(=O)N[C@@H](CO)C(=O)NCC(=O)N(C)[C@H](Cc2ccccc2)C(=O)N[C@@H](CC(C)C)C(=O)N[C@H](CCCNC(=N)N)C(=O)N[C@@H](CCC(=O)O)C(=O)N[C@H](CCC(N)=O)C(=O)N[C@H](Cc2c[nH]c3ccccc23)C(=O)N[C@@H]([C@@H](C)CC)C(=O)N[C@@H]([C@@H](C)O)C(=O)O[C@@H]1C	Staphylococcus aureus	–	USA300	2 x MIC, 0 min	viable cells	3.7e+08 CFU/mL and 4.8e+08 CFU/mL and 4.2e+08 CFU/mL
Cn1cc(-c2cccc(CN3CCC4(CC3)COc3c4ccc4c3CN([C@H]3CCC(=O)NC3=O)C4=O)c2)cn1	–	–	cynomolgus monkeys	intravenous, 1.00 mg/kg	steady-state volume of distribution	8.15 L/kg
O=[N+]([O-])c1ccc(C2=NOC3(NC(c4ccccc4)=NO3)N2c2ccccc2)cc1 (centres unmarked)	Plasmodium falciparum	parasite growth	DD2	72 h, drug-resistant strain, blood stage	IC50	12.7 µM

For quick reference, copied from above (study 1):
tested at	root length [cm]
25 µg/mL	1.04
